# Experimental data pooled from the literature.
# A part holds a random share of what one study measured.

# Set 1
# Target: Interferon regulatory factor 5, full length, phosphomimetic (IRF5, Homo sapiens, UniProt Q13568-2, residues 1-514, S451D/S453D/S456D/S462D)
# Technique: protein-binding microarray
# Form: double-stranded DNA, one strand shown
# Medium: in vitro
# Tested at: 940 nM top
# Setting: 60-bp whole probe
# Together with: salmon DNA 0.4 mg/ml
# Reference: random background probes
# Reading: higher = stronger binding
# All sequences stand within: GCCTAGCAC … GTCTTGATTCGCTTGACGCTGCTG
Strand,fitted relative affinity
TTAGGTCTCCTTATCCTGTAGTGCTAG,0.517 z-score
GACGGATTCGACTTTCGGGACGTGCTA,0.947 z-score
TTAGGCCTGCTACTGCTTTAGTGCTAG,-0.491 z-score
GATGGTTCCGGTTTCGGGACGTGCTAG,5.94 z-score
GACAAACTGAGTATCGAGACGTGCTAG,1.4 z-score
GACGGTATCGATATCGGGACGTGCTAG,9.13 z-score
GACGGACTGGGGTAGCGGGACGTGCTA,-0.526 z-score
TTAGGTTTCCTTCTGCTTTAGTGCTAG,2.12 z-score
TTAGATCTCAGACTTGATTAGTGCTAG,-0.299 z-score
CTAGGTTTCGGTATCGGTTAGTGCTAG,14.2 z-score
GACGGTTTCCTTCTCTTGACGTGCTAG,1.85 z-score
TTAGAACTGGGGACTGTATTAGTGCTA,0.0465 z-score
TTATGACTGGGGTTTCGGTTAGTGCTA,6.3 z-score
TTAGGTTTCGGACTGGGTGAGTGCTAG,7.78 z-score
CTAGGTTTCGACTATCGGTTAGTGCTA,8.52 z-score
TCAAATTTCCACTTTGAACTGTGCTAG,0.401 z-score

# Set 2
# Target: Prothrombin, mature alpha-thrombin (F2, Homo sapiens, UniProt P00734)
# Technique: aptamer microarray, sandwich
# Form: DNA with 2'F-ANA
# Medium: in vitro
# Tested at: 200 nM
# Setting: whole 15-mer aptamer, many near background
# Together with: Cy3 exosite-II aptamer, 400 nM
# Reading: higher = stronger binding
# Strand: GGTTGGTGTGGTTGG
Modification,mean fluorescence intensity
2'F-ANA at 3 5 14,78.8 a.u.
2'F-ANA at 1 4 6 10 12 14,47.9 a.u.
2'F-ANA at 1 2 5 6 8 9 11 12 14 15,50.4 a.u.
2'F-ANA at 1 2 3 4 7 8,237 a.u.
2'F-ANA at 1 2 5 8 9 10 11 12 15,44.4 a.u.
2'F-ANA at 8 9 10 11 13 14,101 a.u.
2'F-ANA at 1 2 4 10 11 15,47.6 a.u.
2'F-ANA at 1 4 5 11 14 15,46.8 a.u.
2'F-ANA at 2 3 4 9 12 13,602 a.u.
2'F-ANA at 1 10 13 14,48.7 a.u.
2'F-ANA at 2 3 5 9 11 12,200 a.u.
2'F-ANA at 1 2 3 8 9 10 11 12 13 14,66.5 a.u.
2'F-ANA at 10 12 13 14,142 a.u.
2'F-ANA at 3 4 9 11 14 15,303 a.u.
2'F-ANA at 2 5 6 8 9 13 14 15,47.2 a.u.
2'F-ANA at 3 6 7 9 11 13 15,750 a.u.
2'F-ANA at 1 2 3 5 6 7 10 13 15,127 a.u.
2'F-ANA at 4 6 8 9 10 11 12 14 15,57.1 a.u.
2'F-ANA at 5 6 8 9 11 13 14 15,56.8 a.u.
2'F-ANA at 2 5 8 9 10 11 14,61.5 a.u.
2'F-ANA at 1 2 3 5 6 8 11 12 14 15,69.7 a.u.

# Set 3
# Target: Ras GTPase-activating protein-binding protein 1, full length (G3BP1, Homo sapiens, UniProt Q13283)
# Sequence of UniProt Q13283 (whole entry, looked up): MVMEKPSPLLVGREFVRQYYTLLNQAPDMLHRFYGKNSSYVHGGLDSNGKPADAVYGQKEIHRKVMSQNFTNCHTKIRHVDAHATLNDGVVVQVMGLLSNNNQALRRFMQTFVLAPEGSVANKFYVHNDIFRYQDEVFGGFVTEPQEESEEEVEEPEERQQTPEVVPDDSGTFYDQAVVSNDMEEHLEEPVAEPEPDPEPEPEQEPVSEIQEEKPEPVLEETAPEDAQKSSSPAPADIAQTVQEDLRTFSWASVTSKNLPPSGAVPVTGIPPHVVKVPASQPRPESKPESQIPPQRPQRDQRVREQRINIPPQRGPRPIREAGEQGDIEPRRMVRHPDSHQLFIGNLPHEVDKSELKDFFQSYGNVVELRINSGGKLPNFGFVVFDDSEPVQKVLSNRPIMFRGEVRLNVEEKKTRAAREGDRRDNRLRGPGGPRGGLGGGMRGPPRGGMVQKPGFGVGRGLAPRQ
# Technique: RNA Bind-n-Seq
# Form: RNA
# Medium: in vitro
# Tested at: 200 nM
# Setting: whole 134-nt RNA, ends assumed
# Together with: 150 mM LiCl
# Reference: input library
# Reading: higher = stronger binding
# Each molecule: 7-deaza-guanosine replaces G
# All sequences stand within: GGGAGUUCUACAGUCCGACGAUC … UGGAAUUCUCGGGUGUCAAGG
Strand,log2 enrichment
GCAGGAAGUAAAAACAAAUGGAAAUGCUUCGGAUAGUGGCAGGGGUGGGGGUUGCUAAGGAAAGGGUGGAAUGGGAGUGGGUAAAGAGUU,0.112
CUCAAGUCCUGUGCUACACAUCGUAUGUACCGAAUCGGGGCCGGGCCGGCCGGAAAGUAUUAUGUUACGCCGUUCGGAUCUGCACUUCCA,0.876
UGGCCCUGGUGGCAUGCGGGGAGGAAGAGGUGGCCUCAUGGAUCGUGGUGGACCCGGUGGAAUGUUCAGAGGUGGCCGUGGUGGAGACAG,0.988
CCUGUGCUACACAUCGUAUGUACCGAAUCGGGAAAAAGGGAAAAAAAGGGUUUUUUUGGGAAAGUAUUAUGUUACGCCGUUCGGAUCUGC,-0.633
GUCCUGUGCUACACAUCGUAUGUACCGAAUCGGGAAAAAGGGAAAAAGGGAAAAAGGGGAAAGUAUUAUGUUACGCCGUUCGGAUCUGCA,0.0133
CAAGUCCUGUGCUACACAUCGUAUGUACCGAAUCGGGGUUGGGGUUGGGGUUGGGAAAGUAUUAUGUUACGCCGUUCGGAUCUGCACUUC,-0.435
CAAGUCCUGUGCUACACAUCGUAUGUACCGAAUCGGGGUUUGGUUUGGGUUUGGGGAAAGUAUUAUGUUACGCCGUUCGGAUCUGCACUU,-0.842
GUCCUGUGCUACACAUCGUAUGUACCGAAUCGGGGAAAGGGGUUUUUUUGGGGUGGGGAAAGUAUUAUGUUACGCCGUUCGGAUCUGCAC,-0.166

# Set 4
# Target: Histone acetyltransferase KAT6A, winged helix 1, GST fusion (KAT6A, Homo sapiens, UniProt Q92794, residues 1-85)
# Technique: protein binding microarray
# Form: double-stranded DNA, one strand shown
# Medium: in vitro
# Tested at: not given
# Setting: 8-mer, flanks averaged, mean of 2 arrays, mostly near background
# Reference: not given
# Reading: higher = stronger binding
# Target sequence (chain): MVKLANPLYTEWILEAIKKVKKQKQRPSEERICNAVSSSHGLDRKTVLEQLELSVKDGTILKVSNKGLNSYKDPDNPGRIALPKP
Strand,E-score
CTAGGCGA,0.0818
TAGTTAAA,-0.0527
CGCACCAC,0.0923
AAATCGCA,-0.0628
CAGAACGG,0.0106
CTAAAAAG,-0.02
ATGCTGGA,-0.207
ATCCCGAA,-0.0963
GAACAGGA,-0.153
GCCACGTA,-0.0941
CCGAGCGA,0.23
AAAGCGCC,0.317
CCCACAAG,-0.145
TCGAAACA,-0.247
GAGGCGAC,0.00709
AAGCGTGC,0.213
ACATTTAA,-0.122

# Repeated from above (set 2):
Modification,mean fluorescence intensity
2'F-ANA at 3 4 9 11 14 15,303 a.u.
2'F-ANA at 1 2 3 4 7 8,237 a.u.
2'F-ANA at 1 2 3 5 6 7 10 13 15,127 a.u.
2'F-ANA at 1 2 5 8 9 10 11 12 15,44.4 a.u.
2'F-ANA at 5 6 8 9 11 13 14 15,56.8 a.u.
2'F-ANA at 3 5 14,78.8 a.u.
2'F-ANA at 1 4 5 11 14 15,46.8 a.u.
2'F-ANA at 2 3 5 9 11 12,200 a.u.
2'F-ANA at 2 3 4 9 12 13,602 a.u.
2'F-ANA at 3 6 7 9 11 13 15,750 a.u.
2'F-ANA at 1 10 13 14,48.7 a.u.
